Results of several laboratories.
Every numbered part comes from another study and shows a few of its results, in no order.

Sample 1 — technique: protein-binding microarray; molecule type: double-stranded DNA, one strand shown; matrix: in vitro; concentration: 2540 nM top; notes: 60-bp whole probe; with: salmon DNA 0.4 mg/ml; relative to: random background probes; reading: higher = stronger binding; shared flanks, not repeated: GCCTAGCAC … GTCTTGATTCGCTTGACGCTGCTG
Target: Interferon regulatory factor 3, full length, phosphomimetic (IRF3, Homo sapiens, UniProt Q14653, residues 1-427, S386D/S396D/S398D/S402D/T404D/S405D)
Construct (chain): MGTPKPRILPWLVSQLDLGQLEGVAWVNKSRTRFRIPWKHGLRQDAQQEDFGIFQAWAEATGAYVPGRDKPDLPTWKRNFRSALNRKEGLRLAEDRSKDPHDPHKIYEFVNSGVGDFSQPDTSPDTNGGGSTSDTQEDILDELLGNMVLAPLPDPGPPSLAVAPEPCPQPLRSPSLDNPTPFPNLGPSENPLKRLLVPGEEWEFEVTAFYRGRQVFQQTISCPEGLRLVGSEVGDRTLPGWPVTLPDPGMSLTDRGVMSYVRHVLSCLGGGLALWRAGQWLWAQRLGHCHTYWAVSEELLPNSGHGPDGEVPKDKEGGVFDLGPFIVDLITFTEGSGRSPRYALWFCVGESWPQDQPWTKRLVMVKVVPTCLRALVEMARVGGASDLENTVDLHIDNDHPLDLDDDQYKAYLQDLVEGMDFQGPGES
For `AGGAATTTCCCACTTTCAGTGTGCTAG`, “fitted relative affinity” read 2.53 z-score.
For `TTAGGCCTCGGTTTCGGTTAGTGCTAG`, “fitted relative affinity” read 3.69 z-score.
For `TAGAGTAGCTTTCTGAGGGCGTGCTAG`, “fitted relative affinity” read -0.396 z-score.
`TCAAATATCTTTGTTGAACTGTGCTAG` — result for “fitted relative affinity”: 0.0884 z-score.
For `TTAGGTATCGACTTTCGGTTGGTGCTA`, “fitted relative affinity” read 1.35 z-score.
`TTGGTGCTCATTTTTTTTGCGTGCTAG`: “fitted relative affinity” -0.115 z-score.

Sample 2 — technique: protein binding microarray; molecule type: double-stranded DNA, one strand shown; matrix: in vitro; concentration: not given; relative to: not given; reading: higher = stronger binding
Target: Histone acetyltransferase KAT6A, winged helix 1, GST fusion (KAT6A, Homo sapiens, UniProt Q92794, residues 1-85)
Notes: 8-mer, flanks averaged, mean of 2 arrays, mostly near background
Residues (chain): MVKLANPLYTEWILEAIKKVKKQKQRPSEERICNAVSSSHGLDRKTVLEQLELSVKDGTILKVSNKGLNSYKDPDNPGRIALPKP
The E-score of `GCGATAGA` is reported as 0.00131.
For `ATGTGCGC`, the E-score was 0.24.
The E-score of `AACTATGA` is reported as -0.064.
For `CTTTCGTC`, the E-score was -0.0896.
`ACCCAATA` has an E-score of -0.0974.
`AGGTTTCG` has an E-score of 0.00217.

Sample 3 — technique: RNA Bind-n-Seq; molecule type: RNA; matrix: in vitro; concentration: 200 nM; notes: whole 134-nt RNA, ends assumed; with: 150 mM KCl; relative to: input library; reading: higher = stronger binding
Target: Fragile X messenger ribonucleoprotein 1, C-terminal low-complexity region (Fmr1, Mus musculus, UniProt P35922)
Shared flanks, not repeated: GGGAGUUCUACAGUCCGACGAUC … UGGAAUUCUCGGGUGUCAAGG
`AAGUCCUGUGCUACACAUCGUAUGUACCGAAUCGGUUUUGGGUUUUGGGUUUUGGGAAAGUAUUAUGUUACGCCGUUCGGAUCUGCACUU` gave a log2 enrichment of -0.324.
With `GGUUUCUGGUGAGCUUCAUGGUUGACGCCCGGGGUGGUUCCAUGAGAGGAAGUCGCCACAACGGCCUGCGAGUGGUGAUCCCGCCACGGA` the log2 enrichment was -2.02.
For `AGUCCUGUGCUACACAUCGUAUGUACCGAAUCGGGGUUUUGGGGUUUUGGGUUUUGGAAAGUAUUAUGUUACGCCGUUCGGAUCUGCACU`, the log2 enrichment was 0.104.
`ACCAUGCAGGUGGGCAUCUUUGGGAAGUGGGGCAAGGGGGGGAUAGGGAGGGGGGUAACAGUUUGGGAACAGGUGGUCCCAGGUCGUUUC` gave a log2 enrichment of 0.696.
`CUGUGCUACACAUCGUAUGUACCGAAUCGGGGCCCCCCCGGGCCCCCCCGGCCCCCCCGGGGAAAGUAUUAUGUUACGCCGUUCGGAUCU` gave a log2 enrichment of -1.15.

Other studies, line by line
For `PhoQ, residues 284 288 289 292 302 303 SSCLAV`, the fold induction was 8.31 (PhoP, residues 12 14 15 18 19 VHSCL (Escherichia coli, UniProt P23836); Sort-seq, item: YFP reporter; E. coli; PhoQ-PhoP variant library, with: 10 µM Mg2+; relative to: high Mg2+ state, higher = stronger signaling).

For quick reference, copied from above (sample 3):
For `AGUCCUGUGCUACACAUCGUAUGUACCGAAUCGGGGUUUUGGGGUUUUGGGUUUUGGAAAGUAUUAUGUUACGCCGUUCGGAUCUGCACU`, the log2 enrichment was 0.104.
`AAGUCCUGUGCUACACAUCGUAUGUACCGAAUCGGUUUUGGGUUUUGGGUUUUGGGAAAGUAUUAUGUUACGCCGUUCGGAUCUGCACUU` gave a log2 enrichment of -0.324.
